# Assay results of several laboratories.
# Each numbered part is a random draw from the data of one study; scales do not carry over between parts.

# Study 1 — method: protein-binding microarray; form: double-stranded DNA, one strand shown; sample: in vitro; concentration: 250 nM; setting: 60-bp whole probe; together with: salmon DNA 0.4 mg/ml; relative to: random background probes; direction: higher = stronger binding; shared flanks, not repeated: GCCTAGCAC … GTCTTGATTCGCTTGACGCTGCTG
# Target: Interferon regulatory factor 7, full length, phosphomimetic (IRF7, Homo sapiens, UniProt Q92985, residues 1-503, S101K/S471D/S472D/S475D/S476D/S477D/S483D/S484D/S487D)
# Target sequence (chain): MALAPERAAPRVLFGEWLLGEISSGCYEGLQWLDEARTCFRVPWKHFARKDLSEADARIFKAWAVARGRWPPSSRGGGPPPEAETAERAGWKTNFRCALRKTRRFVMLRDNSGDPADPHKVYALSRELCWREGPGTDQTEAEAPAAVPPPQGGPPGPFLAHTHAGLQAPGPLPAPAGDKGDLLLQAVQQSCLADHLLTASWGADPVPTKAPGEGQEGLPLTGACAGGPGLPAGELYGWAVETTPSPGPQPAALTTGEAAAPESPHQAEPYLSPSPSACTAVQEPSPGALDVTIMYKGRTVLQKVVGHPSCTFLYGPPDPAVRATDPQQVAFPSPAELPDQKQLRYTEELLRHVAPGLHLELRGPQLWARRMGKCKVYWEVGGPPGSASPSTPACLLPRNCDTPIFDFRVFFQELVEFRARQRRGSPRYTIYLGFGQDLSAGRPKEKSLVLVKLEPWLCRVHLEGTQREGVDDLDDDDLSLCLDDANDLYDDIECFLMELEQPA
Strand,log fluorescence
TTAGAACTGAGACAGGATTAGTGCTAG,-0.0385 z-score
TTAGAAATGGGGACTGGATTAGTGCTA,-0.181 z-score
GACGGTATCCTTCTCCTCACGTGCTAG,0.211 z-score
TCATGTTTTTTTCTACTTCTGTGCTAG,1.56 z-score
GAGGGTTTCGGACTGGGGACGTGCTAG,1.92 z-score
TCAATCATTGCTTTCTCACTGTGCTAG,0.241 z-score
TTAGGTATCGACTATTGGTTAGTGCTA,0.216 z-score
GACGGTTTCCTTATCCTTACGTGCTAG,2.93 z-score
TCATACATGCATATAGTACTGTGCTAG,0.169 z-score
TAACATATTCTCTTCTTGCAGTGCTAG,0.754 z-score
TATATTCTATTCCTTTAACAGTGCTAG,2.32 z-score
TTTTCATTTTCTTTAACTCAGTGCTAG,3.17 z-score
TCCCTATTATATATATCATAGTGCTAG,1.19 z-score

# Study 2 — method: RNA Bind-n-Seq; form: RNA; sample: in vitro; concentration: 200 nM; setting: whole 134-nt RNA, ends assumed; together with: 150 mM LiCl; relative to: input library; direction: higher = stronger binding; each molecule: 7-deaza-guanosine replaces G
# Target: Fragile X messenger ribonucleoprotein 1, C-terminal low-complexity region (Fmr1, Mus musculus, UniProt P35922)
Strand,log2 enrichment
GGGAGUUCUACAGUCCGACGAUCGCAGGAAGUAAAAACAAAUGGAAAUGCUUCGGAUAGUGGCAGGGAAAGGGGUUGCUAAGGAAAGGGUGGGAUGGGAGUGGGUAAAGAGUUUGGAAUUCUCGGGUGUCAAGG,1.31
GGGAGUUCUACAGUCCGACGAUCCACAGACAACACGCACCCACACAGACACAGAGGGAAGGGGUUGGGAUGGGGACAGGGUGCACAGCAGGGCGGGGUAGGACCCCAGCCGCUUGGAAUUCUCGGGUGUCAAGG,-0.362
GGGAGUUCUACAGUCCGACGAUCCACAGACAACACGCACCCACACAGACACAGAGGGAAGUGGUUGGGAUGGGGACAGGGUGCACAGCAGGGCGGGGUAGGACCCCAGCCCCUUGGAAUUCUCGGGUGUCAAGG,-1.44
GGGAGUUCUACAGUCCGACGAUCGCAGGAAGUAAAAACAAAUGGAAAUGCUUCGGAUAGUGGCAGGGGUGGGGGUUGCUAAGGAAAGGGUGGGAAAGGAGUGGGUAAAGAGUUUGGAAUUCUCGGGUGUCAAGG,1.9
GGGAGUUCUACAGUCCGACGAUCAGUCCUGUGCUACACAUCGUAUGUACCGAAUCGGAAAGGAAAAAAAGGUUUUUUUGGAAAGUAUUAUGUUACGCCGUUCGGAUCUGCACUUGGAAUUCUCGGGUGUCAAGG,-2.77
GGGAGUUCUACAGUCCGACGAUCAAGUCCUGUGCUACACAUCGUAUGUACCGAAUCGGGGCCCCGGCCCCGGCCCCGGGAAAGUAUUAUGUUACGCCGUUCGGAUCUGCACUUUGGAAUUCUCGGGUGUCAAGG,-2.59
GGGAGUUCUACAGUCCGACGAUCUUGAGAUUGGGUGGAUUCCUAUCAUCUGGAAUUCUGACUCCUCGGGUCUCCUUCUCUAGGUAGCCCAGCAGCAGUGAAGAUGCAGACUGAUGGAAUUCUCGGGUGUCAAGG,-1.83
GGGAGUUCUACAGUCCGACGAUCUGCCCUCCGUGGAGUCUUUGUUUCGAAGUCCGAUAAAGGAAUCUCUAUUCCGGUCUUCUUCUAAAGAGUCUUUGGUACGAACAUCUUCCAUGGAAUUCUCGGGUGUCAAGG,-0.407
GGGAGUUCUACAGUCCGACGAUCCUGUGCUACACAUCGUAUGUACCGAAUCGGGGUUUUUUUGGGGAAAAAAAGGGGUUUGGGGAAAGUAUUAUGUUACGCCGUUCGGAUCUGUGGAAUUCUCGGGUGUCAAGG,-2.03
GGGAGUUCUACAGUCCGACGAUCCAAGUCCUGUGCUACACAUCGUAUGUACCGAAUCAAACCCAAAUUUAAAUUUAAAAAAGUAUUAUGUUACGCCGUUCGGAUCUGCACUUCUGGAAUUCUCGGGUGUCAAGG,0.393
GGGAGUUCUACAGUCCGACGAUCGCAGGAAGUAAAAACAAAUGGAAAUGCUUCGGAUAGUGGCAGGGGUGGGGGUUGCUAAGGAAAGGGUGGGACGGGAGUGGGUAAAGAGUUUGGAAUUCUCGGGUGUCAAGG,1.27

# Study 3 — method: RNA Bind-n-Seq; form: RNA; sample: in vitro; concentration: 365 nM; relative to: no-protein control; direction: higher = stronger binding
# Target: RNA binding protein fox-1 homolog 2, RRM domain, GST-SBP tag (RBFOX2, Homo sapiens, UniProt O43251-10, residues 100-194)
# Setting: natural RNA segment, single round, ends assumed
# Construct (chain): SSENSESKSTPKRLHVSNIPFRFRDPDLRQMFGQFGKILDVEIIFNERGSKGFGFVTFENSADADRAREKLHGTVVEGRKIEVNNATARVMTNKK
Strand,RBNS enrichment (R)
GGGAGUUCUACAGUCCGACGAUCCCCCUUGGUCUCUUUAUGCUGCUGAGUCCCCCUUUCCUGCCCUCCCUGGCUACUGGGUCAAUAAUCUUUCAGGCCAUGAAUCUGGGAGGAGAGUGGUCUGUAAGCUCCAUUGGAAUUCUCGGGUGCCAA,0.504
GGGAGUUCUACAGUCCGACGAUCAAUGUUGGAGCCGAUCCAGGGUUUGAGAGAGCUACAAAGACAUCGGGGGCUGGAGCCAUGCCUUGGUAGUGACAGACGCAGGUAAAGGUGACAUCCAUAAACAGAGGCAGUGGAAUUCUCGGGUGCCAA,0.644
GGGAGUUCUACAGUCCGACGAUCAAAAUCUUUGGGGAACAAACUUAUUUAACUGUAGAGUAAGUUUCCUAUUAUGAAAUAAGUAAAGGUAGAAAAAUAAUGGUCUGUUGUUACUUAAGAAUACUCCUGGCAUAUGGAAUUCUCGGGUGCCAA,0.72
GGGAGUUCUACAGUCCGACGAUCAGCCCUGGGGUGGUCAGAGAGGCCCAUGCCACCCGUCCCCACUUGUGACAUCCCCUUCGACCACCAGCUGACCAUGCAUGCCACGUGGCCAGCUGAGUCCAGGACCCUCUUGGAAUUCUCGGGUGCCAA,4.3
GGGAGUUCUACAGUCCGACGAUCUGGACGUGUGGGCCACUUAAGCCCUCCCCACCCCCAUCCUAUUCCUGAAUAAAACCAGGAUAAUGGAGAGUUGUCUUUUCUGACAGUUUUAAUAAGCACUUCCCUAUCUGUGGAAUUCUCGGGUGCCAA,0.338
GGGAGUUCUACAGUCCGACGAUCCCCAACCUUCAGGCUGCCAGAUGCUCCCCUGACAACACCAGGCUACAGGAGCCAGACGCCAGGGCCUGCCCGGCCUCCUGUUCCUGCCCCCACCCACCACCUGCCUGGAGUGGAAUUCUCGGGUGCCAA,0.259
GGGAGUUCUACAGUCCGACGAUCUGGGUUUUGUAGCAUUUUUAUUAAUAUGGUGACUUUUUAAAAUAAAAACAAACAAACGUUGUCCUAACUCUUGCAUAGACUUGACUGCCUAGGGUGAUGCCUUGCUUAUAUGGAAUUCUCGGGUGCCAA,1.04
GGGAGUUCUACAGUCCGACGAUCGGAUCUCUCCAUGGGACUCUUUAACCAGGCUAGAACAGCUGUCUGCCAAAGAUACAAGAAUAUGCAAAGUCCCUCCUCCUAACCCUCCUUCCCUCUAAGUCGGUGGCUUGUGGAAUUCUCGGGUGCCAA,0.452
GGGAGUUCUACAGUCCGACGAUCCCAAGUCAAGGCUUAGGGAAGUUCAGCCACCUGCUUAGAUGAUAUAUCAAGGUGGCAGUGGAAGGGGGUGAGCUAAGGACCCAGCAAGGUUUCCUGGAGGCAAAGUUUAUUGGAAUUCUCGGGUGCCAA,0.464
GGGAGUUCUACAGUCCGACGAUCUCUUGCUAGAGAAAACAUAUAUUAAACUGUAACUUUUUCUAAAUUUAAAAGAAGUUUUAAGAUAGAUAUUAAUAUGAAGUGUGUAAUAUUUCUUUUGAGGGUCAAAUAUUUGGAAUUCUCGGGUGCCAA,0.876

# Mixed results
Molecule,target,assay,test system,setting,how to read,endpoint,value
"PhoQ, residues 284 288 289 292 302 303 SLKLQV","PhoP, residues 12 14 15 18 19 LHATL (Escherichia coli, UniProt P23836)","Sort-seq, measured: YFP reporter",E. coli,"PhoQ-PhoP variant library, together with: 10 µM Mg2+","relative to: high Mg2+ state, higher = stronger signaling",fold induction,1.23

# Excerpt of the above (study 1):
Strand,log fluorescence
TAACATATTCTCTTCTTGCAGTGCTAG,0.754 z-score
TTAGGTATCGACTATTGGTTAGTGCTA,0.216 z-score
GACGGTATCCTTCTCCTCACGTGCTAG,0.211 z-score
